Measurements from different studies.
Lines come from different studies, so protocols differ. “And” joins repeats or separate records; there may be more than shown. ± marks the error that the study gave.
Technique: steady-state kinetics
B1: asnB (Escherichia coli, UniProt P22106); chain CSIFGVFDIKTDAVELRKKALELSRLMRHRGPDWSGIYASDNAILAHERLSIVDVNAGAQPLYNQQKTHVLAVNGEIYNHQALRAEYGDRYQFQTGSDCEVILALYQEKGPEFLDDLQGMFAFALYDSEKDAYLIGRDHLGIIPLYMGYDEHGQLYVASEMKALVPVCRTIKEFPAGSYLWSQDGEIRSYYHRDWFDYDAVKDNVTDKNELRQALEDSVKSHLMSDVPYGVLLSGGLDSSIISAITKKYAARRVEDQERSEAWWPQLHSFAVGLPGSPDLKAAQEVANHLGTVHHEIHFTVQEGLDAIRDVIYHIETYDVTTIRASTPMYLMSRKIKAMGIKMVLSGEGSDEVFGGYLYFHKAPNAKELHEETVRKLLALHMYDCARANKAMSAWGVEARVPFLDKKFLDVAMRINPQDKMCGNGKMEKHILRECFEAYLPASVAWRQKEQFSDGVGYSWIDTLKEVAAQQVSDQQLETARFRFPYNTPTSKEAYLYREIFEELFPLPSAAECVPGGPSVACSSAKAIEWDEAFKKMDDPSGRAVGVHQSAYK
B2: cyc1 F95M (Streptomyces coelicolor, UniProt Q9K499); chain MHAFPHGTTATPTAIAVPPSLRLPVIEAAFPRQLHPYWPKLQETTRTWLLEKRLMPADKVEEYADGLCYTDLMAGYYLGAPDEVLQAIADYSAWMFVWDDRHDRDIVHGRAGAWRRLRGLLHTALDSPGDHLHHEDTLVAGFADSVRRLYAFLPATWNARFARHFHTVIEAYDREFHNRTRGIVPGVEEYLELRRLTFAHWIWTDLLEPSSGCELPDAVRKHPAYRRAALLSQEFAAWYNDLCSLPKEIAGDEVHNLGISLITHHSLTLEEAIGEVRRRVEECITEFLAVERDALRFADELADGTVRGKELSGAVRANVGNMRNWFSSVYWFHHESGRYMVDSWDDRSTPPYVNNEAAGEK
B3: Mgst1 unactivated (Rattus norvegicus, UniProt P08011); chain ADLKQLMDNEVLMAFTSYATIILAKMMFLSSATAFQRLTNKVFANPEDCAGFGKGENAKKFLRTDEKVERVRRAHLNDLENIVPFLGIGLLYSLSGPDLSTALIHFRIFVGARIYHTIAYLTPLPQPNRGLAFFVGYGVTLSMAYRLLRSRLYL
B4: Nudt8 (Mus musculus, UniProt Q9CR24); chain MLPDGLSAEDEQRCRQLLARTTARLRSRPAAAAVLVPLCLVRGVPALLYTLRSSRLVGRHKGEVSFPGGKCDPDDQDVIHTALRETQEELGLEVPKEHVWGVLQPVYDREKATIVPVLANVGPLDLQSLRPNLEEVDEVFEMSLAHLLQTQNQGYTHFCQGGHFSYTLPVFLHGPHRVWGLTAVITELTLKLLAPGFYQPSLAVPELPRG
B5: enzyme (Bifidobacterium adolescentis, UniProt A1A3M6); chain MIRRYLNTVEESKMISGAGAMNPVCPREDGRLEWGNGVVSMLFDTAGDSPVRLCNVAGRGMGPIGGRVTDDGRTVLERDPRPIVEVRAANTGSQDNRLTLIATVAGSVLRFVSAAASEPEEGSAEPYRLEIVQFASYAELEPHGRAFEPTAAERAEAAAQPSPETVRHADATAGLVVTSVFEAFPGLSAVRTYTRLSSARPLPIEAVSSLNLTVPMRVNCGKIDHSRVFWGDSAWAVENDWRSRPLRDVSVRNRNQVINPGQSSSRFAMSSASTWSTGVHEPAGIVQVEGSRRQSRDFSVMWQIEHNGPWEWEIGEDDPGLHISAFGPEYQDHHWYTELGEGHDFESVPVSFAISAGDWQQSVAEMTLQRRALRAAKARELGRSEQFERTQGLVIYNDYMNTLFGDPRLEKELPLVEGAARVGADIFCIDAGWYDSTDGGWWDMVGEWQASTNRFGEAGLKGLADTIRAHGMGLGLWLEPEVIGVKSPLAQSLPDDAFFQRHGVRVCDSGRYLLDFRSPAAREHVTRTVNRLIDDFGAVFFKFDYNTVPGVGTDLDAESAGAGLLGHCRAYLDWLDDLRRRHPDVMIENCGSGAMRADYAQLQRLDLQSTSDQCDPLIYAAIAAGAGLTILPEQQGNWGYAQQEMDDETAVFTLATGILGRLYLSGFIDRMDEHRLALVRDAVALHRRVLTEQQELVPFWPARLPDFDGDWLVVGLRHPSFLPSEDDDSCDYIIVWRRGGTPSVNVPLSEDCHIEQIFPNPAVPEHAPDAKPWTVERMDPETVRLNAATSKQPSARIFAIR
B6: FDC1 (Saccharomyces cerevisiae, UniProt Q03034); chain MRKLNPALEFRDFIQVLKDEDDLIEITEEIDPNLEVGAIMRKAYESHLPAPLFKNLKGASKDLFSILGCPAGLRSKEKGDHGRIAHHLGLDPKTTIKEIIDYLLECKEKEPLPPITVPVSSAPCKTHILSEEKIHLQSLPTPYLHVSDGGKYLQTYGMWILQTPDKKWTNWSIARGMVVDDKHITGLVIKPQHIRQIADSWAAIGKANEIPFALCFGVPPAAILVSSMPIPEGVSESDYVGAILGESVPVVKCETNDLMVPATSEMVFEGTLSLTDTHLEGPFGEMHGYVFKSQGHPCPLYTVKAMSYRDNAILPVSNPGLCTDETHTLIGSLVATEAKELAIESGLPILDAFMPYEAQALWLILKVDLKGLQALKTTPEEFCKKVGDIYFRTKVGFIVHEIILVADDIDIFNFKEVIWAYVTRHTPVADQMAFDDVTSFPLAPFVSQSSRSKTMKGGKCVTNCIFRQQYERSFDYITCNFEKGYPKGLVDKVNENWKRYGYK
B7: onr (Enterobacter cloacae, UniProt P71278); chain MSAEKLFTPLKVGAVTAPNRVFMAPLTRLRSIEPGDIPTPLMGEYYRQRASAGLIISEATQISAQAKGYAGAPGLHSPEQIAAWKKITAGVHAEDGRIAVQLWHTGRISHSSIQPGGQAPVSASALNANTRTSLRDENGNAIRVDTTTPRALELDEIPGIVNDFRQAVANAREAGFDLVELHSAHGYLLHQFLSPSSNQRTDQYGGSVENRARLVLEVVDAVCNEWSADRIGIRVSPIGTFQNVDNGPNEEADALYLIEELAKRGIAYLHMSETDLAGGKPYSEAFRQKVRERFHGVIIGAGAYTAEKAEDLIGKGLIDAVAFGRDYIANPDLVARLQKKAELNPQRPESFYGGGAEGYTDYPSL
B8: Tcur_2987 W263A (Thermomonospora curvata, UniProt D1A807); chain ACSEERAAGARPSATQTTGTATEPFHGPHQAGIATPPQAHAVFLGLDLRKGTGRKELGRLMRLLTDDARRLTQGRPALADPEPDLAPLPSRLTFTFGFGPGLFKAAGLEKQRPEGLRPLPPFKVDRLEDRWSGGDLLVQICCDDPITLAHALRMTVKDARAFTRVRWVQRGFRRSPGVQSSGATQRNLMGQLDGTVNPVPGTADFDQAVWVQDGPEWLRGGTTLVLRRIRMELEKADEADPAGKEFAVGRRLTSGAPLTGRHEHDEPDFDAVDSAGFPVIAENAHIRLAHVDSPRLRMLRRPYNYDEGLTADGRSDAGLLFAAYQADIDRQFIPVQRRLDEGGDLLNLWTTPIGSAVFAIPPGCDENGWIGQGLLG
B9: UGT1A9 (Homo sapiens, UniProt O60656); chain GKLLVVPMDGSHWFTMRSVVEKLILRGHEVVVVMPEVSWQLGRSLNCTVKTYSTSYTLEDLDREFKAFAHAQWKAQVRSIYSLLMGSYNDIFDLFFSNCRSLFKDKKLVEYLKESSFDAVFLDPFDNCGLIVAKYFSLPSVVFARGILCHYLEEGAQCPAPLSYVPRILLGFSDAMTFKERVRNHIMHLEEHLLCHRFFKNALEIASEILQTPVTEYDLYSHTSIWLLRTDFVLDYPKPVMPNMIFIGGINCHQGKPLPMEFEAYINASGEHGIVVFSLGSMVSEIPEKKAMAIADALGKIPQTVLWRYTGTRPSNLANNTILVKWLPQNDLLGHPMTRAFITHAGSHGVYESICNGVPMVMMPLFGDQMDNAKRMETKGAGVTLNVLEMTSEDLENALKAVINDKSYKENIMRLSSLHKDRPVEPLDLAVFWVEFVMRHKGAPHLRPAAHDLTWYQYHSLDVIGFLLAVVLTVAFITFKCCAYGYRKCLGKKGRVKKAHKSKTH

B1 (asnB) — kcat/Km (N[C@@H](CC(=O)O)C(=O)O; pH 8, 37 °C, apparent, added: L-glutamine 20 mM): 1200 M⁻¹ s⁻¹
WlbA (Thermus thermophilus, UniProt Q72KX8) — kcat/Km (CC(=O)N[C@H]1[C@@H](OP(=O)(O)OP(=O)(O)OC[C@H]2O[C@@H](n3ccc(=O)[nH]c3=O)[C@H](O)[C@@H]2O)O[C@H](C(=O)O)[C@@H](O)[C@@H]1O; pH 8.5, 25 °C, added: enzyme-bound NAD(H)): 560000 M⁻¹ s⁻¹
B2 (cyc1 F95M) — kcat/Km (CC(C)=CCC/C(C)=C/CC/C(C)=C/CO[P@@](=O)(O)OP(=O)(O)O; pH 6.5, 30 °C, added: MgCl2 10 mM): 11500 ± 500 M⁻¹ s⁻¹
B3 (Mgst1 unactivated) — kcat/Km (CC(=O)c1ccc(Cl)c([N+](=O)[O-])c1; pH 6.5, 5 °C, potassium phosphate 0.1 M, unactivated enzyme, added: GSH 5 mM): 210 ± 30 M⁻¹ s⁻¹
B4 (Nudt8) — kcat/Km (CC(C)(COP(=O)(O)OP(=O)(O)OC[C@H]1O[C@@H](n2cnc3c(N)ncnc32)[C@H](O)[C@@H]1OP(=O)(O)O)[C@@H](O)C(=O)NCCC(=O)NCCSC(=O)CCC(=O)O; pH 8.5, added: 2 mM Mn2+): 9500 M⁻¹ s⁻¹
B5 (enzyme) — kcat/Km (O=[N+]([O-])c1ccc(O[C@H]2O[C@H](CO)[C@H](O)[C@H](O)[C@H]2O)cc1; pH 5, 40 °C): 408 M⁻¹ s⁻¹
B6 (FDC1) — kcat/Km (O=C(O)/C=C/c1ccc(O)cc1; pH 7, 25 °C, apparent kcat, incomplete cofactor occupancy, apparent): 13600 ± 880 M⁻¹ s⁻¹
B7 (onr) — kcat/Km (CC1=CC(=O)N(c2ccccc2)C1=O; pH 7, 25 °C, apparent, anaerobic, added: NADPH 100 µM): 2.47e+06 M⁻¹ s⁻¹
B8 (Tcur_2987 W263A) — kcat/Km (Nc1c(S(=O)(=O)O)cc(Nc2cccc(S(=O)(=O)CCOS(=O)(=O)O)c2)c2c1C(=O)c1ccccc1C2=O; pH 3, sigmoidal kinetics, added: H2O2 1 mM): 1.9e+06 M⁻¹ s⁻¹
B9 (UGT1A9) — Km (COc1cc(-c2oc3cc(O)cc(O)c3c(=O)c2O)cc(OC)c1O; pH 7.4, 37 °C): 0.98 µM and 1.61 µM

A few entries again:
B8 (Tcur_2987 W263A) — kcat/Km (Nc1c(S(=O)(=O)O)cc(Nc2cccc(S(=O)(=O)CCOS(=O)(=O)O)c2)c2c1C(=O)c1ccccc1C2=O; pH 3, sigmoidal kinetics, added: H2O2 1 mM): 1.9e+06 M⁻¹ s⁻¹
WlbA (Thermus thermophilus, UniProt Q72KX8) — kcat/Km (CC(=O)N[C@H]1[C@@H](OP(=O)(O)OP(=O)(O)OC[C@H]2O[C@@H](n3ccc(=O)[nH]c3=O)[C@H](O)[C@@H]2O)O[C@H](C(=O)O)[C@@H](O)[C@@H]1O; pH 8.5, 25 °C, added: enzyme-bound NAD(H)): 560000 M⁻¹ s⁻¹
